# Results collected from several papers.
# Lines come from different studies, so protocols differ.
# Partner: itself
# B1: mpr N176A (Mycobacterium smegmatis, UniProt Q50442); chain MTTPQPYPGMPSQPAPQGVPYPPQQPAKKKRKWPAIVGGVIALMIVGSIFNDDKKDTTPAENTATVAQAPAAAPTKEVPETTATINTPVRDGKFEFVVRSVEPGLSEVGDNPFLNQKAQGQFVIVTLSVQNIGDRPQGFSPSNQKLFDTEGRSFETDTSAQIALDNNDIAVWDNIAPGNTVDVSLVYDMPVDAVPASIELHDSMFSGGVTVNLTP
# B2: rsmI (Escherichia coli, UniProt P67087); sequence looked up; chain MKQHQSADNSQGQLYIVPTPIGNLADITQRALEVLQAVDLIAAEDTRHTGLLLQHFGINARLFALHDHNEQQKAETLLAKLQEGQNIALVSDAGTPLINDPGYHLVRTCREAGIRVVPLPGPCAAITALSAAGLPSDRFCYEGFLPAKSKGRRDALKAIEAEPRTLIFYESTHRLLDSLEDIVAVLGESRYVVLARELTKTWETIHGAPVGELLAWVKEDENRRKGEMVLIVEGHKAQEEDLPADALRTLALLQAELPLKKAAALAAEIHGVKKNALYKYALEQQG
# B3: pnp 1-763 Q546A/D548A (Mycobacterium smegmatis, UniProt A0QVQ5); chain MSVVELEDGVYESTAVIDNGSFGTRTIRFETGRLAQQAAGSAVAYLDDETMLLSATTASKNPKDHFDFFPLTVDVEERMYAAGRIPGSFFRREGRPSTDAILTCRLIDRPLRPSFVDGLRNEIQVVVTVMSLDPKDLYDVLAINAASMSTQLAGLPFSGPVGGARIALIDGTWVAFPTVEQLERAVFDMVVAGRIVGDGDSADVAIMMVEAEATENVVELVAGGAQAPTEAVVAEGLEAAKPFIKALCAAQQELADRAAKPAGEYPVFPDYEADVYDAVASVATEALAEALTIAGKTERNDRTDEIKVEVLERLAEPYAGREKEIGAAFRSLTKKLVRQRILTDHFRIDGRGITDIRALSAEVAVIPRAHGSALFERGETQILGVTTLDMIKMAQQIDSLGPENTKRYMHHYNFPPYSTGETGRVGSPKRREIGHGALAERALVPVLPSIEEFPYAIRQVSEALGSNGSTSMGSVCASTLALLNAGVPLKAPVAGIAMGLVSDDVDVDGKVEKRYVALTDILGAEDAFGDMDFKVAGTKDFVTALALATKLDGIPSQVLAGALSQAKDARLTILDVMAEAIDRPDEMSPYAPRITTIKVPVDKIGEVIGPKGKMINSITEETGAQISIEDDGTVFVGAADGLSAQAAIDKINAIANPQLPKVGERFLGTVVKTTDFGAFVSLLPGRDGLVHISKLGKGKRIAKVEDVVKVGDKLRVEIADIDNRGKISLVLVAEESAESAESAGDKGAEKAEGAAADVTPAEA
# B4: ureR N117S (Escherichia coli, UniProt P32326); chain MEYKFFLSESQMVLKAFYIESAMIAMLTGAKGNIVINGQSIEIESDVTLIIPKYSQVSCNIVCNTVKQPLELHTLSMSAEELQAVFLLLKTLMKSGAPLTSHQPIYHISPPETVRDSFSLLKQCLPLKKQSASQEALLMKQSLYFILMAIYQEGIDILNLFRFNYDEPKNQAITHLITQEPQKKWHLDDVAKALFTTPSTLRRHLNREGVSFRQLLLDVRMGMALNYLTFSNYSVFQISHRCGFGSNAYFCDVFKRKYNMTPSQFRLQSRQSNDPNFITNLSLRSNPIEFDKEIDE
# B5: coat protein self-assembled VLP (bacteriophage Qβ, UniProt P03615); chain AKLETVTLGNIGKDGKQTLVLNPRGVNPTNGVASLSQAGAVPALEKRVTVSVSQPSRNRKNYKVQVKIQNPTACTANGSCDPSVTRQAYADVTFSFTQYSTDEERAFVRTELAALLASPLLIDAIDQLNPAY
# B6: higA 1-104 (Proteus vulgaris, UniProt Q7A224); chain MRQFKVSHPGEMIARDLEDMGVSGRRFAHNIGVTPATVSRLLAGKTALTPSLSIRIAAALGSTPEFWLRLQSNYDLRQLENQIDTSGIVLYGESNEQQQNAQEH
# B7: NFR5 276-595 V294E/Y297E/V298E (Lotus japonicus, UniProt Q70KR1); chain ALNRTASSAETADKLLSGESGEESKPNVYEIDEIMEATKDFSDECKVGESVYKANIEGRVVAVKKIKEGGANEELKILQKVNHGNLVKLMGVSSGYDGNCFLVYEYAENGSLAEWLFSKSSGTPNSLTWSQRISIAVDVAVGLQYMHEHTYPRIIHRDITTSNILLDSNFKAKIANFAMARTSTNPMMPKIDVFAFGVLLIELLTGRKAMTTKENGEVVMLWKDMWEIFDIEENREERIRKWMDPNLESFYHIDNALSLASLAVNCTADKSLSRPSMAEIVLSLSFLTQQSSNPTLERSLTSSGLDVEDDAHIVTSITAR
# B8: FADD L8G (Homo sapiens, UniProt Q13158); chain MDPFLVLGHSVSSSLSSSELTELKFLCLGRVGKRKLERVQSGLDLFSMLLEQNDLEPGHTELLRELLASLRRHDLLRRVDDFEAGAAAGAAPGEEDLCAAFNVICDNVGKDWRRLARQLKVSDTKIDSIEDRYPRNLTERVRESLRIWKNTEKENATVAHLVGALRSCQMNLVADLVQEVQQARDLQNRSGAMSPMSWNSDASTSEAS
# B9: ANPEP 66-967 (Homo sapiens, UniProt P15144); chain DQSKAWNRYRLPNTLKPDSYRVTLRPYLTPNDRGLYVFKGSSTVRFTCKEATDVIIIHSKKLNYTLSQGHRVVLRGVGGSQPPDIDKTELVEPTEYLVVHLKGSLVKDSQYEMDSEFEGELADDLAGFYRSEYMEGNVRKVVATTQMQAADARKSFPCFDEPAMKAEFNITLIHPKDLTALSNMLPKGPSTPLPEDPNWNVTEFHTTPKMSTYLLAFIVSEFDYVEKQASNGVLIRIWARPSAIAAGHGDYALNVTGPILNFFAGHYDTPYPLPKSDQIGLPDFNAGAMENWGLVTYRENSLLFDPLSSSSSNKERVVTVIAHELAHQWFGNLVTIEWWNDLWLNEGFASYVEYLGADYAEPTWNLKDLMVLNDVYRVMAVDALASSHPLSTPASEINTPAQISELFDAISYSKGASVLRMLSSFLSEDVFKQGLASYLHTFAYQNTIYLNLWDHLQEAVNNRSIQLPTTVRDIMNRWTLQMGFPVITVDTSTGTLSQEHFLLDPDSNVTRPSEFNYVWIVPITSIRDGRQQQDYWLIDVRAQNDLFSTSGNEWVLLNLNVTGYYRVNYDEENWRKIQTQLQRDHSAIPVINRAQIINDAFNLASAHKVPVTLALNNTLFLIEERQYMPWEAALSSLSYFKLMFDRSEVYGPMKNYLKKQVTPLFIHFRNNTNNWREIPENLMDQYSEVNAISTACSNGVPECEEMVSGLFKQWMENPNNNPIHPNLRSTVYCNAIAQGGEEEWDFAWEQFRNATLVNEADKLRAALACSKELWILNRYLSYTLNPDLIRKQDATSTIISITNNVIGQGLVWDFVQSNWKKLFNDYGGGSFSFSNLIQAVTRRFSTEYELQQLEQFKKDNEETGFGSGTRALEQALEKTKANIKWVKENKEVVLQWFTENSK
# B10: pnp 1-763 T470A/S471A (Mycobacterium smegmatis, UniProt A0QVQ5); chain MSVVELEDGVYESTAVIDNGSFGTRTIRFETGRLAQQAAGSAVAYLDDETMLLSATTASKNPKDHFDFFPLTVDVEERMYAAGRIPGSFFRREGRPSTDAILTCRLIDRPLRPSFVDGLRNEIQVVVTVMSLDPKDLYDVLAINAASMSTQLAGLPFSGPVGGARIALIDGTWVAFPTVEQLERAVFDMVVAGRIVGDGDSADVAIMMVEAEATENVVELVAGGAQAPTEAVVAEGLEAAKPFIKALCAAQQELADRAAKPAGEYPVFPDYEADVYDAVASVATEALAEALTIAGKTERNDRTDEIKVEVLERLAEPYAGREKEIGAAFRSLTKKLVRQRILTDHFRIDGRGITDIRALSAEVAVIPRAHGSALFERGETQILGVTTLDMIKMAQQIDSLGPENTKRYMHHYNFPPYSTGETGRVGSPKRREIGHGALAERALVPVLPSIEEFPYAIRQVSEALGSNGSAAMGSVCASTLALLNAGVPLKAPVAGIAMGLVSDDVDVDGKVEKRYVALTDILGAEDAFGDMDFKVAGTKDFVTALQLDTKLDGIPSQVLAGALSQAKDARLTILDVMAEAIDRPDEMSPYAPRITTIKVPVDKIGEVIGPKGKMINSITEETGAQISIEDDGTVFVGAADGLSAQAAIDKINAIANPQLPKVGERFLGTVVKTTDFGAFVSLLPGRDGLVHISKLGKGKRIAKVEDVVKVGDKLRVEIADIDNRGKISLVLVAEESAESAESAGDKGAEKAEGAAADVTPAEA
# B11: coat protein 2-130 (bacteriophage MS2, UniProt P03612); chain ASNFTQFVLVDNGGTGDVTVAPSNFANGVAEWISSNSRSQAYKVTCSVRQSSAQNRKYTIKVEVPKVATQTVGGVELPVAAWRSYLNMELTIPIFATNSDCELIVKAMQGLLKDGNPIPSAIAANSGIY
# B12: MS2 coat protein dimer fused single-chain dimer 2-130 (bacteriophage MS2, UniProt P03612); sequence looked up; chain ASNFTQFVLVDNGGTGDVTVAPSNFANGVAEWISSNSRSQAYKVTCSVRQSSAQNRKYTIKVEVPKVATQTVGGVELPVAAWRSYLNMELTIPIFATNSDCELIVKAMQGLLKDGNPIPSAIAANSGIYASNFTQFVLVDNGGTGDVTVAPSNFANGVAEWISSNSRSQAYKVTCSVRQSSAQNRKYTIKVEVPKVATQTVGGVELPVAAWRSYLNMELTIPIFATNSDCELIVKAMQGLLKDGNPIPSAIAANSGIY
# B13: pnp 1-763 R105A (Mycobacterium smegmatis, UniProt A0QVQ5); chain MSVVELEDGVYESTAVIDNGSFGTRTIRFETGRLAQQAAGSAVAYLDDETMLLSATTASKNPKDHFDFFPLTVDVEERMYAAGRIPGSFFRREGRPSTDAILTCALIDRPLRPSFVDGLRNEIQVVVTVMSLDPKDLYDVLAINAASMSTQLAGLPFSGPVGGARIALIDGTWVAFPTVEQLERAVFDMVVAGRIVGDGDSADVAIMMVEAEATENVVELVAGGAQAPTEAVVAEGLEAAKPFIKALCAAQQELADRAAKPAGEYPVFPDYEADVYDAVASVATEALAEALTIAGKTERNDRTDEIKVEVLERLAEPYAGREKEIGAAFRSLTKKLVRQRILTDHFRIDGRGITDIRALSAEVAVIPRAHGSALFERGETQILGVTTLDMIKMAQQIDSLGPENTKRYMHHYNFPPYSTGETGRVGSPKRREIGHGALAERALVPVLPSIEEFPYAIRQVSEALGSNGSTSMGSVCASTLALLNAGVPLKAPVAGIAMGLVSDDVDVDGKVEKRYVALTDILGAEDAFGDMDFKVAGTKDFVTALQLDTKLDGIPSQVLAGALSQAKDARLTILDVMAEAIDRPDEMSPYAPRITTIKVPVDKIGEVIGPKGKMINSITEETGAQISIEDDGTVFVGAADGLSAQAAIDKINAIANPQLPKVGERFLGTVVKTTDFGAFVSLLPGRDGLVHISKLGKGKRIAKVEDVVKVGDKLRVEIADIDNRGKISLVLVAEESAESAESAGDKGAEKAEGAAADVTPAEA
# B14: fruR 1-326 (Vibrio cholerae, UniProt Q9KM69); chain MTLDEIAKLAGVSKTTASYVINGKAQKYRISEKTQHKVMAVVEQYNFRPDHAASALRAGNSRSFGLIIPDLENTSYARLAKLLEQNSRQAGYQILIACSDDDPQIEMAAAEALVSRRIDALFVASGIPSASEYYLKLQQSGTPVIAIDRALDDEYFSCVISEDFGAAFELTRSVLTQDVHSVGLVGALPELNVSREREQGFAMAVKQRGLPTTLGYGEHFNREEGRKVFAKWVANDQLPDAVVATSYTLLEGILDVLLEQPELMQKVRLATFGDNRLLDFLPIRVNSLPQQFELIADSALALALNASAKRYQTGIELIPRQLKVRT
# Sequence of UniProt A3M645 (whole entry, looked up): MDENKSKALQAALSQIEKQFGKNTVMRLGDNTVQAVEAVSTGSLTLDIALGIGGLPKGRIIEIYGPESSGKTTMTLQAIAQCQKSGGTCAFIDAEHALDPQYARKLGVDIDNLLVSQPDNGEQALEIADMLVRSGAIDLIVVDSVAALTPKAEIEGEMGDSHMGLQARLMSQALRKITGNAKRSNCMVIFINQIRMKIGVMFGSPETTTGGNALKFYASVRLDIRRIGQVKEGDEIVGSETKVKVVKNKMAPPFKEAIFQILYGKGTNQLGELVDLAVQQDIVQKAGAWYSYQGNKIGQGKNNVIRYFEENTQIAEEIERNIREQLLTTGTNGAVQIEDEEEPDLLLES
Substance,technique,molecule type,together with,binding
B1 (mpr N176A),cross-linking,,GTP,binds
B2 (rsmI),cryo-EM,,,binds
B3 (pnp 1-763 Q546A/D548A),SEC,,,binds
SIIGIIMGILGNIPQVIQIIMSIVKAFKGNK (Candidalysin mature (Candida albicans)),negative stain electron microscopy,peptide,,binds
B4 (ureR N117S),SEC,,,binds
B5,transmission electron microscopy,,,binds
B6 (higA 1-104),SEC,,,binds
"recA (Acinetobacter baumannii, UniProt A3M645)",SEC,,,binds
B7 (NFR5 276-595 V294E/Y297E/V298E),dynamic light scattering,,,binds
B8 (FADD L8G),SEC,,,binds
B9 (ANPEP 66-967),cryo-EM,,,binds
B10 (pnp 1-763 T470A/S471A),SEC,,,binds
B11 (coat protein 2-130),SEC,,,binds
B12,"SEC, TEM, DLS",,,binds
B13 (pnp 1-763 R105A),SEC,,,binds
B14 (fruR 1-326),crystal structure,,,binds

# A few entries again:
Substance,technique,molecule type,together with,binding
B8 (FADD L8G),SEC,,,binds
B9 (ANPEP 66-967),cryo-EM,,,binds
